Assay results of several laboratories.
Lines come from different studies, so protocols differ. ± marks the error that the study gave.
ESR1: Estrogen receptor (ESR1, Homo sapiens, UniProt P03372)
RORC: Nuclear receptor ROR-gamma (RORC, Homo sapiens, UniProt P51449)

COc1ccc(-c2oc3c(CC=C(C)C)c(O)cc(O)c3c(=O)c2O[C@@H]2O[C@@H](C)[C@H](O)[C@@H](O)[C@H]2O)cc1  EC50 (ESR1; array formation, agonist; ERα-GFP PRL-HeLa; 1 h): 1290 nM
CC1CN(S(=O)(=O)c2cccc(C(F)(F)F)c2)c2cc(OCc3c(F)cccc3Cl)ccc21 (centres unmarked)  EC50 (RORC; reporter gene, agonist, GAL4 luciferase reporter; together with: ursolic acid 2 µM): 1800 ± 640 nM
CC(C)=CCc1c(O)ccc(C(=O)/C=C/c2ccc(O)cc2)c1O  EC50 (ESR1; array formation, agonist; ERα-GFP PRL-HeLa; 1 h): 4170 nM
CCCCCCCP(=O)(C(C)C)C(C)C  EC50 (Transient receptor potential cation channel subfamily M member 8 (Trpm8, Rattus norvegicus, UniProt Q8R455); calcium influx, agonist, calcium imaging; 25 °C): 1620 ± 630 nM
O=S(=O)(c1cccc(C(F)(F)F)c1)N1CCc2ccc(OCc3c(Cl)cccc3Cl)cc21  EC50 (RORC; reporter gene, agonist, GAL4 luciferase reporter; together with: ursolic acid 2 µM): 170 ± 40 nM
COc1ccc(NC(=O)CN2CCOCC2)c([N+](=O)[O-])c1  Kd (Cyclin-dependent kinase 2 (CDK2, Homo sapiens, UniProt P24941); binding): > 100000 nM
Cn1cc2c(C(=O)O)ccc(NS(=O)(=O)c3ccc(OCC4CCC4)c(Cl)c3)c2n1  EC50 (Cannabinoid receptor 1 (CNR1, Homo sapiens, UniProt P21554); agonist): > 10000 nM
O=S(=O)(c1cccc(C(F)(F)F)c1)N1c2cc(OCc3c(F)cccc3Cl)ccc2CC1C(F)(F)F (centres unmarked)  EC50 (RORC; IL-17 production, inverse agonist; HEK-293T; together with: ursolic acid): 150 nM
COc1c(O)cc2oc(-c3ccc(O)cc3)cc(=O)c2c1O  EC50 (Gamma-aminobutyric acid receptor subunit alpha-1 (GABRA1, Homo sapiens, UniProt P14867, D219N); Western blot, item: GABRA1 D219N protein level; HEK293T stably expressing α1 D219N; 24 h): 8500 ± 1100 nM
O=S(=O)(c1cccc(C(F)(F)F)c1)N1CCc2ccc(OCc3c(F)cncc3Cl)cc21  EC50 (RORC; reporter gene, agonist, GAL4 luciferase reporter; together with: ursolic acid 2 µM): 760 ± 120 nM
COc1c(O)cc2oc(-c3ccccc3)cc(=O)c2c1O  EC50 (ESR1; array formation, agonist; ERα-GFP PRL-HeLa; 1 h): 1170 nM
O=C1Nc2c(ccc(Cl)c2Cl)C1=NO  EC50 (KCNN4/CALM1 (Homo sapiens, UniProt O15554+P0DP23, N201F); ion current, activator, whole-cell patch clamp; N201F mutant): 195 nM
COc1ccccc1COc1ccc2c(c1)N(S(=O)(=O)c1cccc(C(F)(F)F)c1)CC2  EC50 (RORC; reporter gene, agonist, GAL4 luciferase reporter; together with: ursolic acid 2 µM): 620 ± 160 nM
COc1c([C@H]2[C@H](C(=O)Nc3ccnc(C(N)=O)c3)O[C@@](C)(C(F)(F)F)[C@H]2C)ccc(F)c1F  EC50 (Progesterone receptor (PGR, Homo sapiens, UniProt P06401); agonist): ≥ 30000 nM
O=c1cc(-c2ccc(O)cc2)oc2cc(O[C@@H]3O[C@H](CO)[C@@H](O)[C@H](O)[C@H]3O)cc(O)c12  EC50 (ESR1; array formation, agonist; ERα-GFP PRL-HeLa; 1 h): 2310 nM
CC(C)CCCC(C)C1CCC2C(C(=O)O)C([C@]3(C)C=CC(=O)CC3)CC[C@]12C (some centres unmarked)  EC50 (Voltage-gated potassium channel, KQT; KCNQ2(Kv7.2)/KCNQ3(Kv7.3) (KCNQ3/KCNQ2, Homo sapiens, UniProt O43525+O43526); G(V) shift, activator, two-electrode voltage clamp; pH 7.4): 31000 nM
O=c1c(O)c(-c2ccc(O)c(O)c2)oc2cc(O)ccc12  EC50 (ESR1; array formation, agonist; ERα-GFP PRL-HeLa; 1 h): 1360 nM
O=S(=O)(c1cccc(C(F)(F)F)c1)N1CCc2ccc(OCc3c(Cl)ccnc3Cl)cc21  EC50 (RORC; reporter gene, agonist, GAL4 luciferase reporter; together with: ursolic acid 2 µM): 160 ± 30 nM
COc1ccc(CCC(=O)c2c(O)cc(O[C@@H]3O[C@H](CO)[C@@H](O)[C@H](O)[C@H]3O[C@@H]3O[C@@H](C)[C@H](O)[C@@H](O)[C@H]3O)cc2O)cc1O  EC50 (ESR1; array formation, agonist; ERα-GFP PRL-HeLa; 1 h): 976 nM
CCC(C)(C)C(=O)C(=O)N1CCCC[C@H]1C(=O)N[C@H](CCc1ccc(OC)cc1)C(=O)N1[C@@H]2CC[C@H]1C[C@H](Nc1nc(NCCc3sc(N)nc3C)nc(N3CCn4ncnc4C3)n1)C2  EC50 (Autophagy-related protein 16-1 (ATG16L1, Homo sapiens, UniProt Q676U5, T300A); protection from caspase-3 cleavage, AlphaLISA): 12100 nM
CC(=O)N=S(=O)(O)c1ccc(N/C=C2\C(=O)Nc3ccc4ncsc4c32)cc1  Kd (Cyclin-dependent kinase 2, with cyclin A (CDK2, Homo sapiens, UniProt P24941); bio-layer interferometry (Octet RED); 298 K, CDK2-cyclin A complex, averaged): 207 nM
CN(C)CCC=C1c2ccccc2CCc2ccccc21  EC50 (ESR1; human cells): > 100000 nM
CC(=O)c1cc([N+](=O)[O-])c(Sc2cccc(Cl)c2Cl)s1  EC50 (Ubiquitin carboxyl-terminal hydrolase 8 (USP8, Homo sapiens, UniProt P40818); enzyme activity, inhibitor): > 50000 nM
O=S(=O)(c1cc(Cl)cc(Cl)c1)N1CCc2ccc(OCc3c(F)cccc3Cl)cc21  EC50 (RORC; reporter gene, agonist, GAL4 luciferase reporter; together with: ursolic acid 2 µM): 380 ± 100 nM
O=C(COP(=O)(O)O)[C@@H](O)[C@H](O)[C@H](O)COP(=O)(O)O  EC50 (Pyruvate kinase PKM (PKM, Homo sapiens, UniProt P14618); enzyme activity, activator; without AIM): 52.3 ± 17.3 nM
O=c1cc(-c2ccc(O)cc2)oc2cc(O)c(O)c(O)c12  EC50 (ESR1; array formation, agonist; ERα-GFP PRL-HeLa; 1 h): 3190 nM
O=S(=O)(c1cccc(C(F)(F)F)c1)N1c2cc(OCc3c(F)cncc3Cl)ccc2CC1C(F)(F)F (centres unmarked)  EC50 (RORC; reporter gene, agonist, GAL4 luciferase reporter; together with: ursolic acid 2 µM): 150 ± 20 nM
CCN(C(=O)C1CCN(S(=O)(=O)c2ccc3[nH]ncc3c2)CC1)[C@H](C)c1ccccc1  EC50 (Muscarinic acetylcholine receptor M3 (CHRM3, Homo sapiens, UniProt P20309); calcium mobilization, positive allosteric modulator; CHO cells expressing CHRM3): 1700 nM
O=c1c(O)c(-c2cc(O)c(O)c(O)c2)oc2cc(O)cc(O)c12  EC50 (ESR1; array formation, agonist; ERα-GFP PRL-HeLa; 1 h): 1000 nM

Some of these lines once more:
O=C1Nc2c(ccc(Cl)c2Cl)C1=NO  EC50 (KCNN4/CALM1 (Homo sapiens, UniProt O15554+P0DP23, N201F); ion current, activator, whole-cell patch clamp; N201F mutant): 195 nM
CN(C)CCC=C1c2ccccc2CCc2ccccc21  EC50 (ESR1; human cells): > 100000 nM
